{"data": "Published values of several laboratories", "note": "Lines come from different studies, so protocols differ. Several values in a cell are separate wells, animals, samples, runs or records. ± gives the spread as reported."}
{"Structure (SMILES)": "COc1cc(C(=O)NC2CCN(C)CC2)c(F)cc1Nc1ncc(C(F)(F)F)c(Oc2cccc3c2C(=O)N(C)C3)n1", "test system": "human, Japanese, plasma", "conditions": "oral, 200 mg once daily multiple dose, geometric mean", "quantity": "Cmax steady state", "result": "2960 nM"}
{"Structure (SMILES)": "COC(=O)N[C@H](C(=O)N1CCC[C@H]1c1ncc(-c2cc(F)c3c(c2)O[C@@H](c2cnc(C4CC4)s2)n2c-3cc3cc(-c4cnc([C@@H]5CCCN5C(=O)[C@@H](NC(=O)OC)C(C)C)[nH]4)ccc32)[nH]1)C(C)C", "test system": "healthy adult humans", "conditions": "oral, dose not given", "scale": "relative to: moderate-fat meal over fasted", "quantity": "Cmax increase", "result": "53%"}
{"Structure (SMILES)": "O=C(c1cccnc1-c1ccncc1)N1CCC(O)(Cc2ccccc2)CC1", "test system": "human, mild hepatic impairment, plasma", "conditions": "oral, 300 mg", "quantity": "Cmax at steady state", "result": "2020 ng/mL"}
{"Structure (SMILES)": "CC(C)(C#N)c1cc(Cn2cncn2)cc(C(C)(C)C#N)c1", "test system": "human", "conditions": "150 mg", "quantity": "Cmax at steady state", "result": "51.6 ng/mL"}
{"Structure (SMILES)": "C=CC(=O)N1CCC[C@@H](n2c(=O)n(-c3ccc(Oc4ccccc4)cc3)c3c(N)nccc32)C1", "test system": "human", "conditions": "oral, 120 mg", "scale": "relative to: fed over fasted", "quantity": "Cmax fed/fasted ratio", "result": 0.71}
{"Structure (SMILES)": "Cc1cc(Nc2ncc(Cl)c(Nc3ccccc3S(=O)(=O)C(C)C)n2)c(OC(C)C)cc1C1CCNCC1", "test system": "human, plasma", "conditions": "oral, 450 to 600 mg, cycle 2 day 1", "quantity": "Cmax increase", "result": "66%"}
{"Structure (SMILES)": "COc1c(C)c2c(c(O[C@@H]3O[C@H](C(=O)O)[C@@H](O)[C@H](O)[C@H]3O)c1C/C=C(\\C)CCC(=O)O)C(=O)OC2", "test system": "healthy humans", "conditions": "oral, dose not given, together with: isavuconazole co-administration", "scale": "relative to: with isavuconazole over MMF alone", "quantity": "Cmax geometric mean ratio", "result": "68%"}
{"Structure (SMILES)": "CC1(C)CC[C@]2(NC(=O)C(C)(F)F)CC[C@]3(C)[C@H](C(=O)C=C4[C@@]5(C)C=C(C#N)C(=O)C(C)(C)[C@@H]5CC[C@]43C)[C@@H]2C1", "test system": "human, plasma", "conditions": "oral, dose not given, together with: itraconazole", "scale": "relative to: without itraconazole", "quantity": "Cmax fold increase", "result": "~3 fold"}
{"Structure (SMILES)": "Cc1cc(C)c(CNC(=O)c2cc(Cl)c3c(c2C)O[C@@](C)([C@H]2CC[C@H](N(C)C)CC2)O3)c(=O)[nH]1", "test system": "human, male", "conditions": "oral, dose not given, together with: fluconazole", "scale": "relative to: compound alone", "quantity": "Cmax fold increase", "result": "~1.6 fold and 1.6 fold"}
{"Structure (SMILES)": "CO[C@]1(C(=O)N[C@@H](C)c2ccc(-n3cc(F)cn3)nc2)CC[C@H](c2nc(C)cc(Nc3cc(C)[nH]n3)n2)CC1", "test system": "healthy human volunteers, plasma", "conditions": "oral, dose not given, together with: itraconazole", "scale": "relative to: compound alone", "quantity": "Cmax increase", "result": "~84%"}
{"Structure (SMILES)": "C[C@H]1O[C@@H](O[C@H]2[C@@H](O)C[C@H](O[C@H]3[C@@H](O)C[C@H](O[C@H]4CC[C@@]5(C)[C@H](CC[C@@H]6[C@@H]5C[C@@H](O)[C@]5(C)[C@@H](C7=CC(=O)OC7)CC[C@]65O)C4)O[C@@H]3C)O[C@@H]2C)C[C@H](O)[C@@H]1O", "test system": "human", "conditions": "oral, dose not given, together with: omaveloxolone", "scale": "relative to: substrate alone", "quantity": "Cmax decrease", "result": "15%"}
{"Structure (SMILES)": "COc1ccc2nc([S@@+]([O-])Cc3ncc(CO)c(OC)c3C)[nH]c2c1", "test system": "human", "conditions": "control session", "scale": "relative to: (R)-OH-omeprazole over compound", "quantity": "Cmax ratio", "result": "9.8 fold"}
{"Structure (SMILES)": "OC[C@H]1O[C@@H](c2ccc(Cl)c(Cc3ccc(O[C@H]4CCOC4)cc3)c2)[C@H](O)[C@@H](O)[C@@H]1O", "test system": "healthy humans, plasma", "conditions": "oral, 25 mg once daily, 5 days, alone", "quantity": "Cmax at steady state", "result": "475 ± 116 ng/mL"}
{"Structure (SMILES)": "CC(C)=CCC/C(C)=C/CC/C(C)=C/CC[C@@](C)(O)CCC1=C(C)C(=O)C(C)=C(C)C1=O", "test system": "healthy human, plasma", "conditions": "oral, 400 mg, together with: itraconazole 200 mg", "quantity": "Cmax geometric mean", "result": "3430 ng/mL"}
{"Structure (SMILES)": "NC[C@@]1(CC(=O)O)[C@@H]2CC[C@H]3C[C@@H]2[C@@H]1C3", "test system": "human, severe renal impairment, plasma", "conditions": "dose not given", "scale": "relative to: normal renal function", "quantity": "Cmax increase", "result": "21.6%"}
{"Structure (SMILES)": "CC(C)c1nc(N(C)S(C)(=O)=O)nc(-c2ccc(F)cc2)c1/C=C/[C@@H](O)C[C@@H](O)CC(=O)O", "test system": "human", "conditions": "oral, dose not given, together with: omaveloxolone", "scale": "relative to: substrate alone", "quantity": "Cmax decrease", "result": "39%"}
{"Structure (SMILES)": "CCCn1cc(C)c2c(=O)[nH]c(-c3cc(S(=O)(=O)N4CCN(CC)CC4)ccc3OCC)nc21", "test system": "human, plasma", "conditions": "dose not given, together with: alcohol", "scale": "relative to: drug alone", "quantity": "Cmax increase", "result": "74.5%"}
{"Structure (SMILES)": "CC(C)n1c(Nc2cccnc2)nc2cnc(Nc3ccc(N4CCN(C)CC4)cc3)nc21", "assay": "LC-MS/MS", "test system": "human, male, plasma", "conditions": "oral, dose not given, together with: itraconazole", "scale": "relative to: compound alone", "quantity": "Cmax increase", "result": "~41%"}
{"Structure (SMILES)": "CN1CCC(COc2cnc(-c3cccc(Cn4nc(-c5cccc(C#N)c5)ccc4=O)c3)nc2)CC1", "test system": "human", "conditions": "together with: itraconazole", "scale": "relative to: compound alone", "quantity": "Cmax geometric mean ratio", "result": "102%"}
{"Structure (SMILES)": "COC(=O)N[C@@H](C)CNc1nccc(-c2cn(C(C)C)nc2-c2cc(Cl)cc(NS(C)(=O)=O)c2F)n1", "test system": "human, plasma", "conditions": "oral, 50 mg, single dose, geometric mean, together with: posaconazole", "scale": "relative to: compound alone", "quantity": "Cmax increase", "result": "68.4% and ~68%"}
{"Structure (SMILES)": "COC(=O)N[C@@H](C)CNc1nccc(-c2cn(C(C)C)nc2-c2cc(Cl)cc(NS(C)(=O)=O)c2F)n1", "test system": "humans, plasma", "conditions": "oral, dose not given, day 1, single dose, together with: binimetinib", "quantity": "Cmax median", "result": "5950 ng/mL"}
{"Structure (SMILES)": "CC(C)(C(=O)N1CCOc2c(C#N)cncc2C1)C(F)F", "test system": "healthy humans, both sexes, plasma", "conditions": "oral, 20 mg single dose, 2-fold dose increase", "scale": "relative to: 20 mg over 10 mg", "quantity": "Cmax dose proportionality ratio", "result": 2.08}
{"Structure (SMILES)": "Cc1cc(Nc2ncnc3ccc(NC4=NC(C)(CO)CO4)cc23)ccc1Oc1ccn2ncnc2c1 (stereo not shown)", "test system": "human, plasma", "conditions": "tucatinib, day 10, together with: rifampin once daily", "quantity": "Cmax (geometric mean)", "result": "88.5 ng/mL"}
{"Structure (SMILES)": "N[C@@H](CC(=O)N1CCn2c(nnc2C(F)(F)F)C1)Cc1cc(F)c(F)cc1F", "test system": "human, female, plasma", "conditions": "oral, 100 mg single dose", "quantity": "Cmax divided by body mass index", "result": "23.2 ± 7.1 ng/mL"}
{"Structure (SMILES)": "N#Cc1ccc2c(c1)[C@H]1CCCN(C(=O)c3ccc4[nH]cnc4c3)[C@H]1C2", "test system": "human, plasma", "conditions": "oral, 20 mg once daily, steady state", "quantity": "Cmax steady state", "result": "2180 nM"}
{"Structure (SMILES)": "C#C[C@]1(CO)O[C@@H](n2cnc3c(N)nc(F)nc32)C[C@@H]1O", "test system": "human, plasma", "conditions": "oral, 30 mg, together with: high-fat meal", "scale": "relative to: fasted", "quantity": "Cmax decrease", "result": "~50%"}
{"Structure (SMILES)": "C=CC(=O)NC1CCN(c2ncc3ncnc(Nc4ccc(Oc5ccc6c(c5)ncn6C)c(C)c4)c3n2)CC1", "test system": "human, male, plasma", "conditions": "oral, 30 mg, fed", "scale": "relative to: fasted", "quantity": "Cmax reduction", "result": "46%"}
{"Structure (SMILES)": "N#Cc1ccc(C(c2ccc(C#N)cc2)n2cncn2)cc1", "test system": "human", "conditions": "150 mg", "quantity": "Cmax at steady state", "result": "132 ng/mL"}
{"Structure (SMILES)": "COc1cc(C(=O)NC2CCN(C)CC2)c(F)cc1Nc1ncc(C(F)(F)F)c(Oc2cccc3c2C(=O)N(C)C3)n1", "test system": "human patients, plasma", "conditions": "oral, 200 mg once daily, repeated, cycle 1 day 28, geometric mean", "quantity": "Cmax at steady state, dose-normalised", "result": 12.9}
{"Structure (SMILES)": "O=C(O)C[C@H](O)C[C@H](O)/C=C/c1c(C2CC2)nc2ccccc2c1-c1ccc(F)cc1", "test system": "OATP1B1/1B3 humanised mice, plasma", "conditions": "oral, dose not given, together with: silymarin 500 mg/kg", "scale": "relative to: vehicle", "quantity": "Cmax increase", "result": "2.66 fold"}
{"Structure (SMILES)": "N[C@@H]1c2cccnc2[C@H](OC(=O)N2CCC(n3c(=O)[nH]c4ncccc43)CC2)CC[C@H]1c1cccc(F)c1F", "test system": "human, plasma", "conditions": "oral, 75 mg single dose, together with: rifampin", "scale": "relative to: compound alone", "quantity": "Cmax decrease", "result": "64%"}
